Measured values collected from several papers.
Each numbered part is a random draw from the data of one study; scales do not carry over between parts. Values joined by “and” are separate records of one study, mostly repeats; a detail may differ.
Sequence of UniProt P42336 (whole entry, unmodified, looked up): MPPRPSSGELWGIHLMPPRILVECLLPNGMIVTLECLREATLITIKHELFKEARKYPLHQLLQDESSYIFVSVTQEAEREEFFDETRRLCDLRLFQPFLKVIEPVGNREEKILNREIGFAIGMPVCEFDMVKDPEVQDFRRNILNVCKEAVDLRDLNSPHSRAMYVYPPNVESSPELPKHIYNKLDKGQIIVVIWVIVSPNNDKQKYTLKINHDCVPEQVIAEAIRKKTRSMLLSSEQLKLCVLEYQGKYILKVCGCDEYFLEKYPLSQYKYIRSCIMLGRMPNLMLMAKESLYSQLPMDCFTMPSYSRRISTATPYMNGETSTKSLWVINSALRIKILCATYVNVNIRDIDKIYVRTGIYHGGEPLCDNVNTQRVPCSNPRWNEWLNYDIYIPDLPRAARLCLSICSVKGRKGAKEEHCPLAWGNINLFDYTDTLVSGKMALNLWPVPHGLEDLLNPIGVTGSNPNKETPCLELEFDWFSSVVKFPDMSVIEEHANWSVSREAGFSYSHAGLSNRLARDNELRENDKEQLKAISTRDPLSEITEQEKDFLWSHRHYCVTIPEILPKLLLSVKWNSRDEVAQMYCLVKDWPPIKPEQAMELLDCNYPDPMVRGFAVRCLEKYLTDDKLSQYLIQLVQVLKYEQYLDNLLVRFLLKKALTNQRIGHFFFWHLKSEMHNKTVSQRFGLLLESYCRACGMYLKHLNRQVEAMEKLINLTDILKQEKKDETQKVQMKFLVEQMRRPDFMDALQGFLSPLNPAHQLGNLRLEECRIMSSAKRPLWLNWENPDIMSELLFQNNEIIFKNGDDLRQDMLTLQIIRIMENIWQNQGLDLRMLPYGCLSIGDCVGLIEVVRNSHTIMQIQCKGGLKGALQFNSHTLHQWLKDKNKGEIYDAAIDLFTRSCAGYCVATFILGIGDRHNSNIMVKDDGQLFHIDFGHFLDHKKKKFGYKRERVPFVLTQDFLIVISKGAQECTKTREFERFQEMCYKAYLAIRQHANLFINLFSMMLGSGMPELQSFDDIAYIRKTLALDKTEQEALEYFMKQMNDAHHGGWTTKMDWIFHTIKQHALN
Sequence of UniProt Q96LB1 (whole entry, looked up): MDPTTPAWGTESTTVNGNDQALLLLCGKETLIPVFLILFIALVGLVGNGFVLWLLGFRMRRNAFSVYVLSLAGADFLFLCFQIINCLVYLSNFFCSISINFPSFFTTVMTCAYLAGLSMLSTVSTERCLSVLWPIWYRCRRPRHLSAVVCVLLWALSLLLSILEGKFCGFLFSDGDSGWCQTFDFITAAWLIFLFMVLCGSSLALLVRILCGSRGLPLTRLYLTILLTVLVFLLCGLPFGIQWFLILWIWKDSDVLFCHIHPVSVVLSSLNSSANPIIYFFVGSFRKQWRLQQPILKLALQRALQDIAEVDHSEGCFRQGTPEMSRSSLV
Sequence of UniProt Q9H093 (whole entry, looked up): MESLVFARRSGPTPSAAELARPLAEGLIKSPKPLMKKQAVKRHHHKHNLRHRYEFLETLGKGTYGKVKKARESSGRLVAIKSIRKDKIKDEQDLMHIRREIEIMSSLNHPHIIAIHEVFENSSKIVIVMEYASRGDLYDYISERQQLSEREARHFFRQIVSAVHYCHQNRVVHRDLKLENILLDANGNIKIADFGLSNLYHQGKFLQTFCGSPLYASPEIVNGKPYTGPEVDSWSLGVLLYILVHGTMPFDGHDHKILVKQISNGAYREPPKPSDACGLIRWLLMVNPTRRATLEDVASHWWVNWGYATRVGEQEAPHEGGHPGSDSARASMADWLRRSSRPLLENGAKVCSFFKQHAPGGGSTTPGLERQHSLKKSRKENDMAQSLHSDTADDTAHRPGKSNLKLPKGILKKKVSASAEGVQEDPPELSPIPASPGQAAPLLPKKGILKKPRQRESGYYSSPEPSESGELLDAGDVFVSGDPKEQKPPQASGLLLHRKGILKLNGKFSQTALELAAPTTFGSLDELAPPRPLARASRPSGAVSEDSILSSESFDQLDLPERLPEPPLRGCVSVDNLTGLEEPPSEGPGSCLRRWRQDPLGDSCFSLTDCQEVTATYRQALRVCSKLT
Sequence of UniProt Q99677 (whole entry, looked up): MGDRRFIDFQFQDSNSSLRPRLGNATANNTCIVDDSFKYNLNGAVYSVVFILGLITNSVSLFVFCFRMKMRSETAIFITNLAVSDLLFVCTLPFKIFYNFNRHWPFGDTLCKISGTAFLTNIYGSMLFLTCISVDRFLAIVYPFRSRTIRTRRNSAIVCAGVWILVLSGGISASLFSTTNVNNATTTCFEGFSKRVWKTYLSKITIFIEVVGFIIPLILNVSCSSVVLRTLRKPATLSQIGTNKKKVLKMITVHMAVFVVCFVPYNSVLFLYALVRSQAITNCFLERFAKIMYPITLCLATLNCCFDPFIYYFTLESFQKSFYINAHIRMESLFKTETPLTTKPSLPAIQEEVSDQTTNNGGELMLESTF
Sequence of UniProt P21917 (whole entry, looked up): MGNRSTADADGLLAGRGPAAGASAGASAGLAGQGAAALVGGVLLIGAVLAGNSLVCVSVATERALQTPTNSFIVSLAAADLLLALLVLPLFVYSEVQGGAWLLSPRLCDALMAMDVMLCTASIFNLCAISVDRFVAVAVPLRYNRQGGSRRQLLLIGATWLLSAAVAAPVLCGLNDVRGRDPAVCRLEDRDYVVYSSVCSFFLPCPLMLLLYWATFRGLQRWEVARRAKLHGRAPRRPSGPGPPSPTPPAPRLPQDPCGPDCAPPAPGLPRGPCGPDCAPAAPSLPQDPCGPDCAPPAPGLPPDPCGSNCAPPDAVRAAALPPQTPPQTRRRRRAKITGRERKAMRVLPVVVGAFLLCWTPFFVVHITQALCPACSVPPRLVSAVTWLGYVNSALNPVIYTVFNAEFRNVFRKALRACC
Sequence of UniProt Q14289 (whole entry, looked up): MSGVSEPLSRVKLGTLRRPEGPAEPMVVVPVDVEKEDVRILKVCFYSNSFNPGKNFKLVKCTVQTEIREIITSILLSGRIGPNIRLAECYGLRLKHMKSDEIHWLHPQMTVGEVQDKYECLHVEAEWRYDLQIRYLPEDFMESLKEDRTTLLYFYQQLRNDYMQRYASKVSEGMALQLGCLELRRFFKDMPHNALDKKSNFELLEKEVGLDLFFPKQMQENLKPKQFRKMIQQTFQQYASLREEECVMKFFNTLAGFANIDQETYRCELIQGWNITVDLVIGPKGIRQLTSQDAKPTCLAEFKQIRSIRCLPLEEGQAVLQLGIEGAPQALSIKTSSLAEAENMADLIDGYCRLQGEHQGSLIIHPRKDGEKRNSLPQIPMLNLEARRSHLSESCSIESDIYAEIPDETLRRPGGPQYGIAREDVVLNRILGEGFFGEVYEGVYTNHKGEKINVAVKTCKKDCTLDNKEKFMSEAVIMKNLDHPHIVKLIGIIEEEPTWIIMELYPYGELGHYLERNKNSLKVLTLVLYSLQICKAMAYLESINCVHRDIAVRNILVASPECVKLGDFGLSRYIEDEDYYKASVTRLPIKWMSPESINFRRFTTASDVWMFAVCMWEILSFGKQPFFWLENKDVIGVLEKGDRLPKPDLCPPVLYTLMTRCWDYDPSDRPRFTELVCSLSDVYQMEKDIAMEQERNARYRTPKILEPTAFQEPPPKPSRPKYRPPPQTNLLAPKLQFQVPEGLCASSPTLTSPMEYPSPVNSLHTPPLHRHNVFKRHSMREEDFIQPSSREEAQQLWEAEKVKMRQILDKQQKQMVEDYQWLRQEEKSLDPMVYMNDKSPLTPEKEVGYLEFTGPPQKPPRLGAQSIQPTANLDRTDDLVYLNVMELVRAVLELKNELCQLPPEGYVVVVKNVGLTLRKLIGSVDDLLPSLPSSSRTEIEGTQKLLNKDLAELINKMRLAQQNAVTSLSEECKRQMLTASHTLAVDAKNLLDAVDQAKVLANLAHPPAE

Set 1
Target: Ephrin type-A receptor 4 (EPHA4, Homo sapiens, UniProt P54764)
Sequence of UniProt P54764 (whole entry, looked up): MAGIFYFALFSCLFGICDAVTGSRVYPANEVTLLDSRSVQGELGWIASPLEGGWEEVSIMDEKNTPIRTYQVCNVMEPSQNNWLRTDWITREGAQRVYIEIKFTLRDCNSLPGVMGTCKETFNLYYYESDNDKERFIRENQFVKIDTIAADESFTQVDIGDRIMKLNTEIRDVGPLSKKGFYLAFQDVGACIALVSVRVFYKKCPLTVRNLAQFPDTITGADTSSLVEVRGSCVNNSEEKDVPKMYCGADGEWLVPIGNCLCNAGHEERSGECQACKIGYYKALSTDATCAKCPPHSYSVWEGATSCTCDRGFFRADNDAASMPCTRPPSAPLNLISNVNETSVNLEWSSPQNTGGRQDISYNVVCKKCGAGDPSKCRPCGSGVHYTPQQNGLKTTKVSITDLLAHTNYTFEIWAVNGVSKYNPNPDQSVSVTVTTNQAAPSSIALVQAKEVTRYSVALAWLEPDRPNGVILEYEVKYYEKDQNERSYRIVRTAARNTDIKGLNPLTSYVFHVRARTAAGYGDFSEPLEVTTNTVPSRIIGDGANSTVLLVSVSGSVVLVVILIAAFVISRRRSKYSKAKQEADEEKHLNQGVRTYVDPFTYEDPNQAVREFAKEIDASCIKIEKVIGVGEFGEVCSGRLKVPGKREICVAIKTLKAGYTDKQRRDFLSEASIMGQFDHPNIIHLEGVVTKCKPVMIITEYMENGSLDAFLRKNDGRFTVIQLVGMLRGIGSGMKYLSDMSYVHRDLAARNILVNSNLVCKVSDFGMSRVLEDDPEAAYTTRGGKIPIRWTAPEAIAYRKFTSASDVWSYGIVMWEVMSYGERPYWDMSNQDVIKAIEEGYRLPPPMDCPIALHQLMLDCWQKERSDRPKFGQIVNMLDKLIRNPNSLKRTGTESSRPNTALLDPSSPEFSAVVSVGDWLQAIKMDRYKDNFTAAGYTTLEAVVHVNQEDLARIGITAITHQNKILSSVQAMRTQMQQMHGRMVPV
Read-out: enzyme activity
Mode: inhibitor
Concentration: 0.5 µM
Relative to: control
SMILES | remaining activity
C[S+]([O-])c1ccc(-c2nc(-c3ccncc3)c(-c3ccc(F)cc3)[nH]2)cc1 (stereo not drawn) | 95.6%
CN(C)CCCn1cc(C2=C(c3c[nH]c4ccccc34)C(=O)NC2=O)c2ccccc21 | 88.2%
CCC(=O)Nc1ccc2ncnc(Nc3cccc(Br)c3)c2c1 | 94.3%
CC(C)c1nn(-c2c(Cl)cccc2Cl)c2nc(Cc3ccc(OCCO)cc3)[nH]c(=O)c12 | 102%
COc1ccc(-c2cnc3c(-c4ccsc4)cnn3c2)cc1 | 87.6%
COc1cc2ncnc(N3CCN(C(=O)Nc4ccc(Oc5ccccc5)cc4)CC3)c2cc1OC | 93.2%
CS(=O)(=O)CCNCc1ccc(-c2ccc3ncnc(Nc4ccc(OCc5cccc(F)c5)c(Cl)c4)c3c2)o1 | 101%
Cc1ccc(NC(=O)c2ccc(CN3CCN(C)CC3)cc2)cc1Nc1nccc(-c2cccnc2)n1 | 108%
COc1cc2ncnc(Nc3ccc(OCc4ccccc4)cc3)c2cc1OC | 98.5%
Cc1nc(Nc2ncc(C(=O)Nc3c(C)cccc3Cl)s2)cc(N2CCN(CCO)CC2)n1 | 1.63%
O=c1cc(N2CCOCC2)oc2c1ccc1ccccc12 | 94.4%
CCOc1cc2ncnc(Nc3cccc(Br)c3)c2cc1OCC | 75.1%
COc1ccc(Cl)cc1NC(=O)Nc1cc(C)nc2ccccc12 | 104%
Nc1[nH]nc2nnc(-c3c(-c4ccccc4)nn4ccccc34)cc12 | 85.9%
O=C(Nc1ccc(Cl)cc1)c1ccccc1NCc1ccncc1 | 96.5%
CC(=O)O/N=C1/C(c2c(O)[nH]c3cc(Br)ccc23)=Nc2ccccc21 | 87.6%
COc1cc2ncc(-c3ccccc3)nc2cc1OC | 99.3%
O=C1NC(=O)/C(=C/c2ccc3nccnc3c2)S1 | 96%
Cn1cc(/C=C2\C(=O)Nc3ccc(S(N)(=O)=O)cc32)c2ccccc21 | 80.5%
CCN1/C(=C/C(C)=O)Sc2ccc(OC)cc21 | 95.5%
CC(C)[C@H](CO)Nc1nc(Nc2cccc(Cl)c2)c2ncn(C(C)C)c2n1 | 102%
Cn1cnc2cc3c(Nc4cccc(Br)c4)ncnc3cc21 | 80.7%

Set 2
SMILES: CCCOc1ccc([C@@H]2[C@@H](C(=O)O)[C@H](c3ccc4c(c3)OCO4)CN2CC(=O)Nc2c(CC)cccc2CC)cc1
Read-out: cell-free assay
Technique: competition with immobilised ligand
Concentration: 1 µM
target | remaining binding [%]
KIT (Homo sapiens, UniProt P10721, V559D) | 93
STK32B (Homo sapiens, UniProt Q9NY57) | 100
MAP3K4 (Homo sapiens, UniProt Q9Y6R4) | 99
NUAK2 (Homo sapiens, UniProt Q9H093) | 73
Ribosomal protein S6 kinase alpha-1, C-terminal kinase domain (RPS6KA1, Homo sapiens, UniProt Q15418) | 77
PLK3 (Homo sapiens, UniProt Q9H4B4) | 88
PTK2B (Homo sapiens, UniProt Q14289) | 97
NUAK1 (Homo sapiens, UniProt O60285) | 99
CSNK2A2 (Homo sapiens, UniProt P19784) | 83
PIKFYVE (Homo sapiens, UniProt Q9Y2I7) | 91
PIK3CA (Homo sapiens, UniProt P42336, I800L) | 71
FLT3 (Homo sapiens, UniProt P36888) | 100
HIPK1 (Homo sapiens, UniProt Q86Z02) | 79
PIK3CA (Homo sapiens, UniProt P42336, H1047L) | 83
MARK2 (Homo sapiens, UniProt Q7KZI7) | 92

Set 3
Structure (SMILES): CC(C)C[C@H]1NC(=O)[C@H](N(C)C(=O)[C@@H](CC2CCC2)NC(=O)[C@H]2C[C@H](F)CN2C(=O)C2(C(F)(F)F)CC(F)(F)C2)CCCCNC(=O)C2(CC2)NC(=O)[C@@H](Cc2cc(Cl)ccc2Cl)N(C)C1=O
Technique: Vi-Cell counting
Time: 6 days
Relative to: DMSO
cell line | setting | cell count
HCC4006 | 2 µM | 0.975 and 0.961 and 0.994
NCI-H1299 | 20 nM | 1.03 and 0.92
NCI-H446 | 20 nM | 0.969 and 1 and 1.01
A549 | 2 µM | 1.03 and 0.896 and 1.01

Set 4
SMILES: CC(C)CN(C)c1nc(N)c(C(=O)N=C(N)N)nc1Cl
Read-out: β-arrestin recruitment
Mode: agonist
Technique: PRESTO-Tango
Concentration: 10 µM
Relative to: untreated
target | fold over basal
S1PR3 (Homo sapiens, UniProt Q99500) | 0.62
HRH2 (Homo sapiens, UniProt P25021) | 1.59 fold
GALR1 (Homo sapiens, UniProt P47211) | 0.89 fold
Probable G-protein coupled receptor 153 (GPR153, Homo sapiens, UniProt Q6NV75) | 0.65
HTR1E (Homo sapiens, UniProt P28566) | 1.24
AVPR1B (Homo sapiens, UniProt P47901) | 0.49
MRGPRX2 (Homo sapiens, UniProt Q96LB1) | 0.57
GABBR1 (Homo sapiens, UniProt Q9UBS5) | 0.71 fold
Galanin receptor type 3 (Homo sapiens, UniProt O60755) | 0.56 fold
ADRA2B (Homo sapiens, UniProt P18089) | 1.04
DRD4 (Homo sapiens, UniProt P21917) | 1.2
PTGER2 (Homo sapiens, UniProt P43116) | 0.45
UTS2R (Homo sapiens, UniProt Q9UKP6) | 0.62 fold
OPRK1 (Homo sapiens, UniProt P41145) | 1.48 fold
GALR2 (Homo sapiens, UniProt O43603) | 0.42 fold
GLP2R (Homo sapiens, UniProt O95838) | 0.3 fold
LPAR4 (Homo sapiens, UniProt Q99677) | 0.82
G-protein coupled receptor family C group 6 member A (GPRC6A, Homo sapiens, UniProt Q5T6X5) | 0.31 fold
PTGDR (Homo sapiens, UniProt Q13258) | 0.94
